Measurements gathered from unrelated publications.
Values joined by “and” are separate records of one study, mostly repeats; a detail may differ. ± gives the spread as reported.

Compound = COc1cccc(CNC(=O)C#Cc2cn(Cc3ccc(C(=O)O)cc3)c(=O)[nH]c2=O)c1; target = MMP-12; assay = inhibitor, colorimetric; setting = 20 µM; quantity = remaining MMP-12 activity; result = 106 ± 29%
Compound = CC[C@@]1(O)C(=O)OCc2c1cc1n(c2=O)Cc2cc3ccccc3nc2-1; target = MYC G-quadruplex DNA; assay = FRET melting; setting = 2.0 µM, pH 7.0, with: K+ 10 mM; quantity = ΔTm; result = 0.3 ± 0.1 °C
Compound = CC(=O)N[C@H](C(=O)N1C[C@H](O)C[C@H]1C(=O)NCc1ccc(-c2scnc2C)cc1)C(C)(C)SCCCCCCNC(=O)C[C@@H]1N=C(c2ccc(Cl)cc2)c2c(sc(C)c2C)-n2c(C)nnc21; target = DNA-PKcs (human); assay = TMT proteomics; test system = HeLa; setting = 3 µM, 24 h; how to read = reference: DMSO; quantity = relative protein abundance; result = 0.929
Compound = N[C@@H](Cc1c[nH]c2ccccc12)C(=O)O; target = SAR11_1346; assay = differential scanning fluorimetry; test system = Candidatus Pelagibacter sp.; setting = in-house screen; quantity = thermal shift; result = 2.33 °C
Compound = COc1cc2c3c(n(CCCN4CCOCC4)c(=O)c2cc1OC)-c1cc2c(cc1C3=O)OCO2; target = MYC G-quadruplex DNA; assay = FRET melting; setting = 2.0 µM, pH 7.0, with: K+ 10 mM; quantity = ΔTm; result = 11.7 ± 1 °C
Compound = N[C@@H](CS)C(=O)O; target = SAR11_1346; assay = differential scanning fluorimetry; test system = Candidatus Pelagibacter sp.; setting = in-house screen; quantity = thermal shift; result = 3.13 °C
Compound = COc1cc2c3c(n(CCCNCCO)c(=O)c2cc1OC)-c1nc2c(cc1C3=O)OCO2; target = MYC G-quadruplex DNA; assay = FRET melting; setting = 2.0 µM, pH 7.0, with: K+ 10 mM; quantity = ΔTm; result = 26.7 ± 1.2 °C
Compound = CO[C@@H](C(=O)N1Cc2n[nH]c(NC(=O)c3ccc(N4CCN(C)CC4)cc3)c2C1)c1ccccc1; target = histone H3 (human); assay = Western blot and IHC; test system = patients with advanced solid tumours, skin biopsy; setting = 24 h; how to read = reference: baseline; quantity = dose decreasing phospho-histone H3; result = ≥ 500 mg/m2
Compound = CCc1oc2c([C@H](CO)N(CC)CC)cccc2c1C; target = cannabinoid receptors, human; assay = agonist, NanoBiT G-protein dissociation; setting = concentration not given; quantity = activity; result = no effect
Compound = NCCOc1cc(NC(=O)c2cc(OCc3c[nH]nn3)cc(C(=O)Nc3cc(OCCN)c4ccccc4n3)n2)nc2ccccc12; target = c-kit1 G-quadruplex DNA; assay = FRET melting; setting = 1 µM, pH 7.4, with: 60 mM potassium; quantity = ΔTm; result = 9.9 ± 0.9 K
Compound = COc1cc2c3c(n(CCCn4ccnc4)c(=O)c2cc1OC)-c1cc2c(cc1C3=O)OCO2; target = MYC G-quadruplex DNA; assay = FRET melting; setting = 2.0 µM, pH 7.0, with: K+ 10 mM; quantity = ΔTm; result = 8.6 ± 1.3 °C
Compound = CCCC(CCC)c1nc2c(Nc3ccc(C#CCCCCCCCCN)cc3)nc3ccccc3c2[nH]1; target = benzodiazepine site; assay = PDSP screening; quantity = affinity; result = inactive
Compound = Cc1ncsc1-c1ccc(CNC(=O)[C@@H]2C[C@@H](O)CN2C(=O)[C@@H](NC(=O)C2(C#N)CC2)C(C)(C)C)cc1; target = F4/80+ macrophages; assay = immunostaining; test system = Mus musculus, meningeal perivascular region; setting = concentration not given; quantity = macrophage density; result = 12.8 cells/mm²
Compound = Oc1ccccc1-c1n[nH]cc1-c1ccnc2ccccc12; target = MCK1 (Candida albicans); assay = kinase binding, MIB/MS competition; test system = Candida albicans lysate; setting = 10 µM; how to read = reference: DMSO; quantity = log2 fold change; result = 0.06
Compound = O=C(NN=Cc1ccc(C[n+]2ccccc2)cc1)c1ccc2ccc3ccc(C(=O)NN=Cc4ccc(C[n+]5ccccc5)cc4)nc3c2n1.[Br-].[Br-]; target = hp2 hairpin duplex DNA; assay = FRET melting; setting = 1 µM, with: ds26 10 µM; quantity = ΔTm; result = 1.1 ± 0.2 °C
Compound = CC(C)C[C@H](NC(=O)[C@H](Cc1ccc(O)cc1)NC(=O)[C@H](CCC(N)=O)NC(=O)[C@@H](N)CC(=O)O)C(=O)N[C@@H](C)C(=O)N[C@H](C(=O)N1CCC[C@H]1C(=O)N[C@@H](CCC(N)=O)C(=O)N[C@@H](Cc1c[nH]cn1)C(=O)N1CCC[C@H]1C(=O)N[C@@H](Cc1ccc(O)cc1)C(=O)N[C@@H](CCC(N)=O)C(=O)N[C@@H](Cc1c[nH]c2ccccc12)C(=O)N[C@@H](C)C(=O)N[C@@H](CCCCN)C(=O)O)C(C)C; target = human calcineurin A; assay = NMR mapping; setting = concentration not given; quantity = distance to active site; result = ~20 Å
Compound = CC(Nc1nc(N2CCCC2)nc2ccccc12)c1ccccc1 (stereo not shown); target = importin α/β1; assay = cMyc nuclear import, high content imaging; test system = HeLa Kyoto reporter; setting = 0.0158 µM, 2 h; quantity = cells with nuclear reporter; result = 80.7%
Compound = COc1cc2c3c(n(CCCN4CCOCC4)c(=O)c2cc1OC)-c1nc2c(cc1C3=O)OCO2; target = MYC G-quadruplex DNA; assay = FRET melting; setting = 2.0 µM, pH 7.0, with: K+ 10 mM; quantity = ΔTm; result = 17.2 ± 1.4 °C
Compound = CC[C@H](C)[C@H](N)C(=O)O; target = SAR11_1346; assay = differential scanning fluorimetry; test system = Candidatus Pelagibacter sp.; setting = in-house screen; quantity = thermal shift; result = 4.88 °C and 4.71 °C
Compound = CN(C)CCCOc1cc(NC(=O)c2cccc(C(=O)Nc3cc(OCCCN(C)C)c4ccccc4n3)n2)nc2ccccc12; target = c-kit1 G-quadruplex DNA; assay = FRET melting; setting = 1 µM, pH 7.4, with: 60 mM potassium; quantity = ΔTm; result = 26.8 ± 0.5 K
Compound = CC(C)C[C@H](N)C(=O)O; target = SAR11_1346; assay = differential scanning fluorimetry; test system = Candidatus Pelagibacter sp.; setting = in-house screen; quantity = thermal shift; result = 7.85 °C and 8.35 °C
Compound = CCCCCCCC(=O)OC[C@H](COP(=O)(O)O[C@@H]1[C@H](O)[C@H](O)[C@@H](OP(=O)(O)O)[C@H](OP(=O)(O)O)[C@H]1O)OC(=O)CCCCCCC; target = Kv7.2/Kv7.3(EEE) mutant channel; assay = activator; setting = model 4, K3 fixed; quantity = maximal open probability; result = 0.516
Compound = O=C(O)CCCOc1cccc(CNC(=O)C#Cc2cn(Cc3ccc(C(=O)O)cc3)c(=O)[nH]c2=O)c1; target = MMP-12; assay = inhibitor, FRET; setting = 10 µM; quantity = remaining MMP-12 activity; result = 113 ± 4%
Compound = CCC[C@H](N)C(=O)O; target = SAR11_1346; assay = differential scanning fluorimetry; test system = Candidatus Pelagibacter sp.; setting = in-house screen; quantity = thermal shift; result = 6.87 °C
Compound = Cc1ccc(C(=O)Nc2ccc3ccccc3c2)o1; target = rat Kv2.1; assay = ion current, whole-cell patch-clamp; setting = 10 µM; quantity = inhibition; result = 20%
Compound = C#Cc1cc(-c2cc(Nc3nc(N[C@@H](C)c4ccc(F)cn4)ncc3Cl)n[nH]2)ccc1C=O; target = TFG-TRKA kinase fusion, human; assay = kinase activity, inhibitor; setting = 0.2 µM; quantity = inhibition; result = 103%
Compound = c1coc(-c2n[nH]cc2-c2ccnc3ccccc23)c1; target = MCK1 (Candida albicans); assay = kinase binding, MIB/MS competition; test system = Candida albicans lysate; setting = 10 µM; how to read = reference: DMSO; quantity = log2 fold change; result = -0.02
Compound = Cc1c(N(C)C)ccc2cc(C(=O)NS(=O)(=O)c3ccccc3-c3ccccc3)oc12; target = human estrogen receptor alpha; assay = reporter gene; test system = MCF7-MVLN; quantity = IC50; result = > 20 µM
Compound = N[C@@H]1c2ccccc2OC12CCN(c1cnc3c(N4CCCc5ncccc54)n[nH]c3n1)CC2; target = ERK, human; test system = patients with advanced solid tumours, monocytes, GM-CSF stimulated, blood; setting = 20 mg, cycle 1 day 15, with: GM-CSF; how to read = reference: baseline (cycle 1 day 1); quantity = pERK inhibition; result = ~50%
Compound = CCCCC1=NC2(CCCC2)C(=O)N1Cc1ccc(-c2ccccc2S(=O)(=O)Nc2noc(C)c2C)c(COCC)c1; target = P-gp; assay = substrate, SIVA model; test system = Caco-2; quantity = Jmax; result = 5.56 pmol/min/pmol
Compound = NS(=O)(=O)c1ccc(Nc2nc(-c3ccc(F)cc3)c3ccccc3n2)cc1; target = TRIM33 PHD-bromodomain; assay = BROMOscan; setting = 1000 nM; how to read = reference: untreated control, lower = stronger binding; quantity = remaining binding; result = 87%
Compound = NCCCOc1cc(NC(=O)c2cc(OCCN)cc(C(=O)Nc3cc(OCCCN)c4ccccc4n3)n2)nc2ccccc12; target = c-kit1 G-quadruplex DNA; assay = FRET melting; setting = 1 µM, pH 7.4, with: 60 mM potassium; quantity = ΔTm; result = 22.2 ± 0.4 K
Compound = CC(C)[C@H](N)C(=O)O; target = SAR11_1346; assay = differential scanning fluorimetry; test system = Candidatus Pelagibacter sp.; setting = in-house screen; quantity = thermal shift; result = 4.73 °C and 4.93 °C
Compound = O=C(Nc1cc(OCCN2CCCC2)c2ccccc2n1)c1cc(OCc2ccc(F)cc2)cc(C(=O)Nc2cc(OCCN3CCCC3)c3ccccc3n2)n1; target = c-kit1 G-quadruplex DNA; assay = FRET melting; setting = 1 µM, pH 7.4, with: 60 mM potassium; quantity = ΔTm; result = 9.1 ± 0.9 K
Compound = CCN(CC)CC1CCCCN1CC(=O)N1c2ccccc2C(=O)Nc2cccnc21 (stereo not shown); target = muscarinic M2 receptor, bullfrog; assay = IK(ACh) current, antagonist, whole-cell patch clamp; test system = bullfrog atrial myocytes; setting = holding potential -35 mV, with: acetylcholine 1 µM; quantity = IC50; result = 0.38 µM
Compound = O=C(Nc1cc(OCCN2CCCC2)c2ccccc2n1)c1cc(Cl)cc(C(=O)Nc2cc(OCCN3CCCC3)c3ccccc3n2)n1; target = c-kit1 G-quadruplex DNA; assay = FRET melting; setting = 1 µM, pH 7.4, with: 60 mM potassium; quantity = ΔTm; result = 22.2 ± 0.9 K
Compound = O=c1c2ccccc2[se]n1-c1ccccc1; target = rat AA3; setting = 20 µM; quantity = inhibition; result = inhibited
Compound = COc1cc(C(=O)Nc2cc(OCCN3CCCC3)c3ccccc3n2)nc(C(=O)Nc2cc(OCCN3CCCC3)c3ccccc3n2)c1; target = c-kit1 G-quadruplex DNA; assay = FRET melting; setting = 1 µM, pH 7.4, with: 60 mM potassium; quantity = ΔTm; result = 17.7 ± 0.7 K
Compound = COc1ccc(C(=O)Nc2cc(OC(F)(F)F)ccc2-n2cncn2)cc1OC; target = other mGlu receptor subtypes; assay = agonist, GIRK thallium flux; setting = 10 µM; quantity = agonist effect; result = no effect
Compound = C#CCOc1cc(C(=O)Nc2cc(OCCCN)c3ccccc3n2)nc(C(=O)Nc2cc(OCCCN)c3ccccc3n2)c1; target = c-kit1 G-quadruplex DNA; assay = FRET melting; setting = 1 µM, pH 7.4, with: 60 mM potassium; quantity = ΔTm; result = 16.5 ± 1 K
Compound = COc1cc2c(c(OC)c1OC)-c1ccc(OC)c(=O)cc1[C@@H](NC(C)=O)CC2; target = human FXRα-RXRα; assay = protein-protein interaction, antagonist, mammalian two-hybrid; test system = COS-7 cells; setting = concentration not given, PGC1α co-transfected, with: GW4064; how to read = reference: GW4064 alone; quantity = relative interaction; result = 29.7%
Compound = C#CCOc1cc(C(=O)Nc2cc(OCCN)c3ccccc3n2)nc(C(=O)Nc2cc(OCCN)c3ccccc3n2)c1; target = c-kit1 G-quadruplex DNA; assay = FRET melting; setting = 1 µM, pH 7.4, with: 60 mM potassium; quantity = ΔTm; result = 14.6 ± 0.5 K
Compound = C[n+]1cccc2cc(C=NNC(=O)c3ccc4ccc5ccc(C(=O)NN=Cc6ccc7c(ccc[n+]7C)c6)nc5c4n3)ccc21.[I-].[I-]; target = hp2 hairpin duplex DNA; assay = FRET melting; setting = 1 µM, with: ds26 10 µM; quantity = ΔTm; result = 0.3 ± 0.1 °C

A few entries again:
Compound = CCc1oc2c([C@H](CO)N(CC)CC)cccc2c1C; target = cannabinoid receptors, human; assay = agonist, NanoBiT G-protein dissociation; setting = concentration not given; quantity = activity; result = no effect
Compound = C#CCOc1cc(C(=O)Nc2cc(OCCCN)c3ccccc3n2)nc(C(=O)Nc2cc(OCCCN)c3ccccc3n2)c1; target = c-kit1 G-quadruplex DNA; assay = FRET melting; setting = 1 µM, pH 7.4, with: 60 mM potassium; quantity = ΔTm; result = 16.5 ± 1 K
Compound = C#Cc1cc(-c2cc(Nc3nc(N[C@@H](C)c4ccc(F)cn4)ncc3Cl)n[nH]2)ccc1C=O; target = TFG-TRKA kinase fusion, human; assay = kinase activity, inhibitor; setting = 0.2 µM; quantity = inhibition; result = 103%
